Published values of several laboratories.
Numbered parts are unrelated; each lists some results of a single study. Positions count from the first letter of the parent shown.
Sequence of UniProt Q9UNE7 (whole entry, looked up): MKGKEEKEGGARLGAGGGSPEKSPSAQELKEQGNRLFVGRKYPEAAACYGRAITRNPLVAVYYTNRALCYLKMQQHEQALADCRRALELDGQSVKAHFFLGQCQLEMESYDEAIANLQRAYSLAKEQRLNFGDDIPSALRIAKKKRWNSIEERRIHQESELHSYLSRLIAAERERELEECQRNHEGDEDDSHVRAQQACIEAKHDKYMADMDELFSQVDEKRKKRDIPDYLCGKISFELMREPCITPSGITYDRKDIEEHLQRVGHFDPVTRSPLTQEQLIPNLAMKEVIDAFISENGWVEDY
Sequence of UniProt Q9Y2X8 (whole entry, looked up): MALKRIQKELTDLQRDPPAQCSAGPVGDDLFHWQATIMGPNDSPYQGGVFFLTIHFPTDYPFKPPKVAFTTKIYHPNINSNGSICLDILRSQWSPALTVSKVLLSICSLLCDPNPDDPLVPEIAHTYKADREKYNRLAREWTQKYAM

Block 1
Target: CCNB2, cyclin fold, Cln2 fusion (human)
Method: yeast growth competition, sequencing
Sample: yeast
Setting: weak parent motif
Reference: not given
Reading: higher = stronger binding
Starting sequence: viral docking peptide; PGASRRLFGSSAD; partner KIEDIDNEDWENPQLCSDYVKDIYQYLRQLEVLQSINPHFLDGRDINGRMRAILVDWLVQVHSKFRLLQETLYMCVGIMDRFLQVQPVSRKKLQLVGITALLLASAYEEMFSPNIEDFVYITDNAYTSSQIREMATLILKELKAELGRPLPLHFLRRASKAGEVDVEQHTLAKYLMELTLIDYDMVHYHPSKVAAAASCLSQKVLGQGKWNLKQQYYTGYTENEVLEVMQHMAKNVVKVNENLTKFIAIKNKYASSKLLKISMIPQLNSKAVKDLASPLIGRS
`G2A` — result for “normalised enrichment score”: 0.255.
`R5K` — result for “normalised enrichment score”: 0.365.
For `F8A`, “normalised enrichment score” read 0.213.
Under “normalised enrichment score”, `R5K F8L` is recorded as 0.0713.
`R6A` — result for “normalised enrichment score”: -0.274.
`S11A`: “normalised enrichment score” 0.864.
For `L7A`, “normalised enrichment score” read -0.118.
`R5A L7A` — result for “normalised enrichment score”: 0.297.
Under “normalised enrichment score”, `S10A` is recorded as -0.0325.

Block 2
Target: Histone acetyltransferase KAT6A, both winged helices, GST fusion (KAT6A, Homo sapiens, UniProt Q92794, residues 1-181)
Method: protein binding microarray
Form: double-stranded DNA, one strand shown
Sample: in vitro
Concentration: not given
Setting: 8-mer, flanks averaged, mean of 2 arrays, mostly near background
Reference: not given
Reading: higher = stronger binding
Construct (chain): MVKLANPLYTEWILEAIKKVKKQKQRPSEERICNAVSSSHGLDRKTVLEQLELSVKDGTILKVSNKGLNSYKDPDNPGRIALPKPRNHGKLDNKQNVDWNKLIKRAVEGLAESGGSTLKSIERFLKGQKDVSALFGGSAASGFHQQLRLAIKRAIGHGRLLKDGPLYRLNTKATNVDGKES
`AATATTTC` has an E-score of -0.0575.
The E-score of `ACCCCCAG` is reported as -0.269.
`CAAACCAC` gave an E-score of -0.0594.
`ATCTATGG` gave an E-score of -0.182.
The E-score of `CAATTCAA` is reported as -0.113.
With `CAATTTTA` the E-score was 0.0238.
The E-score of `CGCTACCG` is reported as 0.311.
For `GTGAGACA`, the E-score was -0.0474.

Single results of other studies
`DGAEGINPY`: binding “inactive” (HLA class I histocompatibility antigen, A alpha chain, allele A*25:01 (Homo sapiens, UniProt P04439); peptide-MHC binding; peptide; concentration not given).
`STUB1 RING domain (UniProt Q9UNE7)`: “lacZ reporter activity” 0 (UBE2D4 UBC core domain (UniProt Q9Y2X8); yeast two-hybrid; yeast; mostly zero background; reference: not given, higher = stronger interaction).

Repeated from above (block 2):
For `GTGAGACA`, the E-score was -0.0474.
`CAAACCAC` gave an E-score of -0.0594.
